Measurements from different studies.
Each numbered part is a random draw from the data of one study; scales do not carry over between parts.
UniProt Q15139, sequence (whole entry, looked up): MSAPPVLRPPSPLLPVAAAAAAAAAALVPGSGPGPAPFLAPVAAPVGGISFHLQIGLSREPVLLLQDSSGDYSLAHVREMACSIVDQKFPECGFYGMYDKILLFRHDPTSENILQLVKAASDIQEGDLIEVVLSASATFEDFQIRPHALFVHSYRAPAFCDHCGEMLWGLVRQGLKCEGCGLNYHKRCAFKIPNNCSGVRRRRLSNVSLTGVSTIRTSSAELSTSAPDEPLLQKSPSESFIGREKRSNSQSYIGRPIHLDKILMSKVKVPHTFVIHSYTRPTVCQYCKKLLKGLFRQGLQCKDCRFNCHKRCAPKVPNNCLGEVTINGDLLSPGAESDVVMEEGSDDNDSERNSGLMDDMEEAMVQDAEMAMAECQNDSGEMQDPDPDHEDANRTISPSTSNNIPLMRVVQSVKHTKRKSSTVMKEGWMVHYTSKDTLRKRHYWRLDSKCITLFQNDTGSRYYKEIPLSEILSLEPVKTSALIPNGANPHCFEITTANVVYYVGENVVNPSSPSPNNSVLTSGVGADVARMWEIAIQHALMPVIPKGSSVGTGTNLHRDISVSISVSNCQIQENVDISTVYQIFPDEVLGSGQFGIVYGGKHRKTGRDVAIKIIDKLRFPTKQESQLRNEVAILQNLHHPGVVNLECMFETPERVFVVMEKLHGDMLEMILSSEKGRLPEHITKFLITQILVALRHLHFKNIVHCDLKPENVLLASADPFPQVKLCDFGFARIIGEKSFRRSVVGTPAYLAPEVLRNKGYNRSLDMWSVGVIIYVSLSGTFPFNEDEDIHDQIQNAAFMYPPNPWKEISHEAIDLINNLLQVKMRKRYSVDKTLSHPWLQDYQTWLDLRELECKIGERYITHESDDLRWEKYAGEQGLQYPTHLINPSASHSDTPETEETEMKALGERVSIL
UniProt Q9Y2U5, sequence (whole entry, looked up): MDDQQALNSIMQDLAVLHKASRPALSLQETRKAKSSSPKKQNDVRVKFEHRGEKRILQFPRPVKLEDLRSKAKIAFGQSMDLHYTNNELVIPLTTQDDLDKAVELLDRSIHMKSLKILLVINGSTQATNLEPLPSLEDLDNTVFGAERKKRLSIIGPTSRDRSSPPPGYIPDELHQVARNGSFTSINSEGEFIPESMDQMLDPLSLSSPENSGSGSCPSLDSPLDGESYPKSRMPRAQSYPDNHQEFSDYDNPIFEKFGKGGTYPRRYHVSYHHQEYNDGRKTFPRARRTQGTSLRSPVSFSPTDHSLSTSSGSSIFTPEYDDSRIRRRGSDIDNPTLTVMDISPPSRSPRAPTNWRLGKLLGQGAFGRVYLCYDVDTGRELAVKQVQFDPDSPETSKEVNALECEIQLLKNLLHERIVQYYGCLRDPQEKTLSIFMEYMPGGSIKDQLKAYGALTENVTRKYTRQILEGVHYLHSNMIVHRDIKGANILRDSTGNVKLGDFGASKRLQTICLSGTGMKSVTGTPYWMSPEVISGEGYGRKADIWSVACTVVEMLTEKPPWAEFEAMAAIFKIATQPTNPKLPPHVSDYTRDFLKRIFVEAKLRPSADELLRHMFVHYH
UniProt P34947, sequence (whole entry, looked up): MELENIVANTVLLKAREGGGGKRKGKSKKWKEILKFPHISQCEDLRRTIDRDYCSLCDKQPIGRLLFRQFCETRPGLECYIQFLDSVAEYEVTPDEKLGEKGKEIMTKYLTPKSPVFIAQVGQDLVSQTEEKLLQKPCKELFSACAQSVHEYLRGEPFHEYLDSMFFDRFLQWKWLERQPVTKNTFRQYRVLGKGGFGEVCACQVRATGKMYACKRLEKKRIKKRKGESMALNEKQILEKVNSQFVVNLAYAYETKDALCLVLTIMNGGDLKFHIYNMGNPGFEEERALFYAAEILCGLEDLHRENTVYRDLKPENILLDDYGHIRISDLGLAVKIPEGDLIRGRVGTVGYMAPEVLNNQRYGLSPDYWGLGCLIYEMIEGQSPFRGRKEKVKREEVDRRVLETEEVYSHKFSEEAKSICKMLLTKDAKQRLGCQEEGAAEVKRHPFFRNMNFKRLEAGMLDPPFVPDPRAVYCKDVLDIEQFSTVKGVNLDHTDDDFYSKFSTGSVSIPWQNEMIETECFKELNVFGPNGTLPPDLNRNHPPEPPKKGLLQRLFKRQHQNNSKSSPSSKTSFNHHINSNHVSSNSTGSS

Study 1
SMILES: COC[C@H]1OC(=O)c2coc3c2[C@@]1(C)C1=C(C3=O)[C@@H]2CCC(=O)[C@@]2(C)C[C@H]1OC(C)=O
Observed: enzyme activity
Mode: inhibitor
Tested at: 0.5 µM
Relative to: control
Quantity: remaining activity
target = G protein-coupled receptor kinase 5 (GRK5, Homo sapiens, UniProt P34947); result = 107%
target = Serine/threonine-protein kinase D1 (PRKD1, Homo sapiens, UniProt Q15139); result = 97.3%
target = Mitogen-activated protein kinase kinase kinase 2 (MAP3K2, Homo sapiens, UniProt Q9Y2U5); result = 98.4%

Study 2
Cell line: HEK-293T
Observed: pseudovirus infection
Method: FDA-approved drug library counter-screen
Organism: VSV pseudotyped with VSV-G
Tested at: 10 µM
Time: 16 h
Relative to: vehicle-treated
Quantity: GFP-positive cells
SMILES = CC(=O)Nc1cccc(-n2c(=O)n(C3CC3)c(=O)c3c(Nc4ccc(I)cc4F)n(C)c(=O)c(C)c32)c1; result = 103%
SMILES = Cn1c(=O)c2c(ncn2CC(O)CO)n(C)c1=O (stereo not shown); result = 80.5%
SMILES = C[N+]1(C)[C@@H]2C[C@@H](OC(=O)[C@H](CO)c3ccccc3)C[C@H]1[C@@H]1O[C@@H]12; result = 103%
SMILES = N#C/C(=C1/SC[C@@H](c2ccc(Cl)cc2Cl)S1)n1ccnc1; result = 116%
SMILES = CCN(CC)CCNC(=O)c1ccc(N)cc1; result = 116%

Other studies, line by line
SMILES = O=C(O[C@@H]1Cc2c(O)cc(O)cc2O[C@@H]1c1cc(O)c(O)c(O)c1)c1cc(O)c(O)c(O)c1; tested on = chymotrypsin; assay = enzyme activity, inhibitor; conditions = 10 µM, together with: DTT; quantity = inhibition; result = -0.5%
SMILES = Clc1ncccc1C1Cc2ccccc2C2=NCCN21 (stereo not shown); test system = human, microsomes or S9; conditions = 2 µM, 0.5 h; quantity = remaining compound; result = > 99%

Excerpt of the above (study 2):
SMILES = CCN(CC)CCNC(=O)c1ccc(N)cc1; result = 116%
